Earlier results, collected from citations in different studies.
Compare with care: the assays were run in different laboratories. Converted amounts (≈) assume the structure as drawn.

SMILES | tested on | test | system | conditions | how to read | measurement | value
C[N+](C)(CC(=O)Nc1ccccc1)CC(=O)Nc1ccccc1 | sodium channel | – | node | concentration not given, external application | – | time to steady-state block | > 25 min
O=C(NCc1ccc(Cl)c(C(F)(F)F)c1)Nc1cccc2cnccc12 | TRPV1 | calcium flux, antagonist | HEK293 | added: capsaicin | – | IC50 | 6 nM
CC[C@H](C)C(=O)O[C@H]1C[C@H](O)C=C2C=C[C@H](C)[C@H](CC[C@@H](O)C[C@@H](O)CC(=O)O)[C@H]21 | NR4A2 (Nurr1) | cellular | – | concentration not given | – | activity | inactive
c1cc(-c2cnn3cc(-c4ccc(OCCN5CCCCC5)cc4)cnc23)ccn1 | CSNK1G3 | kinase activity, inhibitor | – | 0.5 µM | – | inhibition | 14%
OC[C@H]1OC(O)[C@H](O)[C@@H](O)[C@@H]1O (stereo partly shown) | human hexokinase 4 | substrate | – | – | – | K0.5 | 7 mM
COc1ccc2nc([S@@+]([O-])Cc3ncc(C)c(OC)c3C)[nH]c2c1 | CYP2C19 | mechanism-based inhibitor | – | – | – | KI | 300 nM
Nc1nc(Nc2ccc(S(N)(=O)=O)cc2)n(C(=S)Nc2c(F)cccc2F)n1 | CSNK1G3 | kinase activity, inhibitor | – | 0.5 µM | – | inhibition | 79%
CCOC(=O)C1=CC(C)(C(=O)c2ccccc2)CCC1=O (stereo not shown) | RSK2 C-terminal kinase domain | – | – | – | – | dissociation half-life | 42 min
CN(CCN)Cc1csc(-c2ccc(C(=N)N)nc2)n1 | PRMT1 | enzyme activity | – | 10 µM | – | inhibition | 75%
CO[C@H]1O[C@H](COS(=O)(=O)O)[C@@H](O[C@@H]2O[C@@H](C(=O)O)[C@@H](O[C@H]3O[C@H](COS(=O)(=O)O)[C@@H](O[C@@H]4O[C@H](C(=O)O)[C@@H](O[C@H]5O[C@H](COS(=O)(=O)O)[C@@H](O)[C@H](O)[C@H]5NS(=O)(=O)O)[C@H](O)[C@H]4O)[C@H](OS(=O)(=O)O)[C@H]3NS(=O)(=O)O)[C@H](O)[C@H]2OS(=O)(=O)O)[C@H](O)[C@H]1NS(=O)(=O)O | CCL7 | binding, ITC | – | – | – | association constant | 280000 M⁻¹
COc1ccccc1Oc1cccc(CN2CCC(NC(=O)C(CCN3CCCC3)c3ccccc3)CC2)c1 (stereo not shown) | human CCR8 F290A mutant (TM7) | IP accumulation, agonist | – | – | – | EC50 | 21 nM
CC(C)(C)n1nc(Cc2cccc3ccccc23)c2c(N)ncnc21 | CSNK1G3 | kinase activity, inhibitor | – | 0.5 µM | – | inhibition | -1%
COc1ccccc1Oc1cccc(CN2CCC3(CC2)C(=O)NCN3CCc2ccccc2)c1 | human CCR8 K195A mutant (TM5) | IP accumulation, agonist | – | – | – | EC50 | 6.2 nM
CCN(CC)CCCCNc1ncc2cc(-c3cc(OC)cc(OC)c3)c(NC(=O)NC(C)(C)C)nc2n1 | ErbB4 | inhibitor | – | – | – | IC50 | > 1000 nM
COc1ccccc1Oc1cccc(CN2CCC(O)(c3ccccc3C(=O)O)CC2)c1 | human CCR8 V109A mutant (TM3) | IP accumulation, agonist | – | – | – | EC50 | 34 nM
FC(F)(F)c1ccc(Nc2nc(N3CCN(C4CC4)CC3)nc3c2CCN(c2ncccc2C(F)(F)F)CC3)cc1 | TRPV1 | calcium flux, antagonist | HEK293 | added: capsaicin | – | IC50 | 11 nM
CCCCCCCC(=O)c1cc(OC)c(OC)c(OC)c1CC(=O)OCC | NR4A2 (Nurr1) | cellular | – | concentration not given | – | activity | inactive
O=C(Nc1cccc2cnccc12)NC1CCc2cc(Br)ccc2C1Cc1ccccc1 (stereo not shown) | TRPV1 | calcium flux, antagonist | HEK293 | added: capsaicin | – | IC50 | 17 nM
COc1ccccc1Oc1cccc(CN2CCC(NC(=O)C3CC(=O)Nc4ccccc43)CC2)c1 (stereo not shown) | human CCR8 F88A mutant (TM2) | IP accumulation, agonist | – | – | – | EC50 | 94 nM
Nc1cc(C(F)(F)F)c(-c2nc(N3CCOCC3)nc(N3CCOCC3)n2)cn1 | FLT3 ITD | – | – | 10 µM | baseline: control | remaining binding | 90%
CCN1CCN(c2cc(N3CCN(CC)CC3)nc(NCCNc3ccnc4cc(Cl)ccc34)n2)CC1 | NR4A2 (Nurr1) | agonist, cell-based | – | – | – | EC50 | ~10000 nM
CC(C)(C)c1ccc(CCNC(=O)Nc2cccc3cnccc23)cc1 | TRPV1 | calcium flux, antagonist | HEK293 | added: capsaicin | – | IC50 | 3 nM
CNC(C)C1CCC(N)C(OC2C(N)CC(N)C(OC3OCC(C)(O)C(NC)C3O)C2O)O1 (stereo not shown) | Escherichia coli | – | clinical isolate RKI-No_582/16 | – | – | MIC | 1 µg/mL (≈ 2.09 µM)

SMILES | tested on | test | system | conditions | how to read | measurement | value
CCNS(=O)(=O)c1ccc(OC)cc1C1(O)CCN(Cc2cccc(Oc3ccccc3OC)c2)CC1 | human CCR8 V109A mutant (TM3) | IP accumulation, agonist | – | – | – | EC50 | 8 nM
Cl.Nc1nccc(-c2c(-c3ccc(F)cc3)ncn2C2CCNCC2)n1 | CSNK1G2 | kinase activity, inhibitor | – | 0.5 µM | – | inhibition | -19%
Oc1ccc(/C=C/c2cc(O)cc(O)c2)cc1 | SIRT5 | deacetylase activity, activator, fluorogenic peptide substrate | – | concentration not given | baseline: untreated | activation | ≤ 2.5 fold
O=C(Nc1ccccc1)c1cc([N+](=O)[O-])ccc1Cl | PPARβ/δ | – | – | – | baseline: PPARγ over PPARβ/δ | selectivity ratio | 600 fold
Oc1c2ccccc2c2c3c(cccc13)N=N2 | CSNK1G2 | kinase activity, inhibitor | – | 0.5 µM | – | inhibition | 12%
FC(F)(F)c1ccc(Nc2ncnc3cc(-c4ncccc4C(F)(F)F)cnc23)cc1 | TRPV1 | calcium flux, antagonist | HEK293 | added: capsaicin | – | IC50 | 0.63 nM
CCN(CC)CC.CCN(CC)CC.O=c1ccn([C@]23C[C@H]2[C@H](COP(=O)(O)OP(=O)(O)O)[C@@H](O)[C@H]3O)c(=O)[nH]1 | P2Y6 receptor | phospholipase C activation | – | – | baseline: UDP | potency enhancement | 7 fold
CN1C(C(=O)Nc2ccccn2)=C(O)c2sc(Cl)cc2S1(=O)=O | NR4A2 (Nurr1) | cellular | – | concentration not given | – | activity | inactive
FC(F)(F)c1ccc(Nc2ccnc3cc(-c4ncccc4C(F)(F)F)ccc23)nc1 | TRPV1 | calcium flux, antagonist | HEK293 | added: capsaicin | – | IC50 | 1.65 nM
COc1cc(Cc2ccc(CCc3ccccc3)o2)ccc1O | SERCA2a | activator | – | concentration not given | baseline: control | maximal SERCA2a activity increase | 25 to 43%
CC1(C)S[C@@H]2[C@H](NC(=O)[C@H](N)c3ccccc3)C(=O)N2[C@H]1C(=O)O | Escherichia coli | – | clinical isolate RKI-No_582/16 | – | – | MIC | > 16 µg/mL
CCCCC/C=C\C/C=C\C/C=C\C/C=C\CCCC(=O)O | CYP4F3A (human) | substrate | yeast microsomes | – | – | kcat | 0.00125 s⁻¹
CO[C@H]1/C=C/O[C@@]2(C)Oc3c(C)c(O)c4c(O)c(c(/C=N/N5CCN(C)CC5)c(O)c4c3C2=O)NC(=O)/C(C)=C\C=C\[C@H](C)[C@H](O)[C@@H](C)[C@@H](O)[C@@H](C)[C@H](OC(C)=O)[C@@H]1C | OATP1B1 | – | – | optimised model value | – | kcat | 1.24 s⁻¹
COc1cc(Nc2c(C#N)cnc3cc(OCCCN4CCN(C)CC4)c(OC)cc23)c(Cl)cc1Cl | CSNK1G2 | kinase activity, inhibitor | – | 0.5 µM | – | inhibition | 2%
O=C(Nc1ccc(C(F)(F)F)cc1)c1ncc(-c2ncccc2C(F)(F)F)cn1 | TRPV1 | calcium flux, antagonist | HEK293 | added: capsaicin | – | IC50 | 42 nM
C[S+]([O-])c1ccc(-c2nc(-c3ccc(F)cc3)c(-c3ccncc3)[nH]2)cc1 (stereo not shown) | CSNK1G3 | kinase activity, inhibitor | – | 0.5 µM | – | inhibition | -3.2%
CCCCC/C=C\C[C@@H](O)/C=C/C=C/C=C\[C@@H](O)CCCC(=O)O | CYP4F3A (human) | substrate | yeast microsomes | – | – | kcat | 0.035 s⁻¹
Oc1ccc(-c2nc(-c3ccncc3)c(-c3ccc(F)cc3)[nH]2)cc1 | CSNK1G3 | kinase activity, inhibitor | – | 0.5 µM | – | inhibition | -2%
Cc1cc(NC(=O)c2cccc(NC(=O)/C=C/CN(C)C)c2)ccc1Nc1nccc(-c2cccnc2)n1 | JNK3 | – | – | 1 µM | baseline: control | remaining activity | 0%
N=C(N)c1ccc(Nc2ccc(-c3cc4ccc(C(=N)N)cc4[nH]3)cc2)cc1 | PRMT3 | enzyme activity, inhibitor | – | concentration not given | – | inhibition | inhibited
CCC(CC)N1CCN(c2nc3c(c(Nc4ccc(C(F)(F)F)cc4)n2)CCN(c2ncccc2C(F)(F)F)CC3)CC1 | TRPV1 | calcium flux, antagonist | HEK293 | added: capsaicin | – | IC50 | 41 nM
NC[C@@]1(CC(=O)O)[C@@H]2CC[C@H]3C[C@@H]2[C@@H]1C3 | voltage-gated calcium channel α2δ subunit | – | – | concentration not given, added: [3H]gabapentin | baseline: compound over pregabalin | binding affinity relative to pregabalin | ~23 fold
COc1ccc(CNc2c(CO)cnc3c(C4CC4)cc(C#N)cc23)cc1Cl | PDE4 | – | – | – | baseline: IC50 PDE4 over PDE5 | selectivity ratio | > 10
